Experimental data of several laboratories.
A part holds a random share of what one study measured.
Chain of UniProt P10721 (whole entry, unmodified, looked up): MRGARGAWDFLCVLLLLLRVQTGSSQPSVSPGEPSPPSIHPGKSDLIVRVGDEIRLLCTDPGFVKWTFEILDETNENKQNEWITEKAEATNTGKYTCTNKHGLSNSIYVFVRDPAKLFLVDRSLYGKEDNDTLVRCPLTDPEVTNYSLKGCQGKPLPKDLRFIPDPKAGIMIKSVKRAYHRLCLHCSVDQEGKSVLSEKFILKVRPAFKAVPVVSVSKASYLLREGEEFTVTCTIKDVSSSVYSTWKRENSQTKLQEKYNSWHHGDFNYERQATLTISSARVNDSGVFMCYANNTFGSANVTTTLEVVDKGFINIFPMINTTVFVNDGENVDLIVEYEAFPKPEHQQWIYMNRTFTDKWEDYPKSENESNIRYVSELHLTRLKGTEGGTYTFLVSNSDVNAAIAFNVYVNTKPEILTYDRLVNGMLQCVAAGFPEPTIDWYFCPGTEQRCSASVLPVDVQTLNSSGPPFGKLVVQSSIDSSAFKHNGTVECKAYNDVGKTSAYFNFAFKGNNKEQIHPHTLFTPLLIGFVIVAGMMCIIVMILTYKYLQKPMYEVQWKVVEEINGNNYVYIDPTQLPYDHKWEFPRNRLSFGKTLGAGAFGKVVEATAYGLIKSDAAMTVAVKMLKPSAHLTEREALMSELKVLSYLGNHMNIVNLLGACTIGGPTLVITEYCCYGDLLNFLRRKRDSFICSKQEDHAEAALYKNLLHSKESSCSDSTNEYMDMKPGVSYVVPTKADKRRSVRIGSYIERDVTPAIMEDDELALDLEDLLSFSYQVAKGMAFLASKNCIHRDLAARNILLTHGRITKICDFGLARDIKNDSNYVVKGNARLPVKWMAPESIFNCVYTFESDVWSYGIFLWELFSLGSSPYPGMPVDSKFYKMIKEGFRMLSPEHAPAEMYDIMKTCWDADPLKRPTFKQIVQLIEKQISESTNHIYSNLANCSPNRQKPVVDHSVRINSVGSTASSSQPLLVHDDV
Chain of UniProt Q9UL54 (whole entry, looked up): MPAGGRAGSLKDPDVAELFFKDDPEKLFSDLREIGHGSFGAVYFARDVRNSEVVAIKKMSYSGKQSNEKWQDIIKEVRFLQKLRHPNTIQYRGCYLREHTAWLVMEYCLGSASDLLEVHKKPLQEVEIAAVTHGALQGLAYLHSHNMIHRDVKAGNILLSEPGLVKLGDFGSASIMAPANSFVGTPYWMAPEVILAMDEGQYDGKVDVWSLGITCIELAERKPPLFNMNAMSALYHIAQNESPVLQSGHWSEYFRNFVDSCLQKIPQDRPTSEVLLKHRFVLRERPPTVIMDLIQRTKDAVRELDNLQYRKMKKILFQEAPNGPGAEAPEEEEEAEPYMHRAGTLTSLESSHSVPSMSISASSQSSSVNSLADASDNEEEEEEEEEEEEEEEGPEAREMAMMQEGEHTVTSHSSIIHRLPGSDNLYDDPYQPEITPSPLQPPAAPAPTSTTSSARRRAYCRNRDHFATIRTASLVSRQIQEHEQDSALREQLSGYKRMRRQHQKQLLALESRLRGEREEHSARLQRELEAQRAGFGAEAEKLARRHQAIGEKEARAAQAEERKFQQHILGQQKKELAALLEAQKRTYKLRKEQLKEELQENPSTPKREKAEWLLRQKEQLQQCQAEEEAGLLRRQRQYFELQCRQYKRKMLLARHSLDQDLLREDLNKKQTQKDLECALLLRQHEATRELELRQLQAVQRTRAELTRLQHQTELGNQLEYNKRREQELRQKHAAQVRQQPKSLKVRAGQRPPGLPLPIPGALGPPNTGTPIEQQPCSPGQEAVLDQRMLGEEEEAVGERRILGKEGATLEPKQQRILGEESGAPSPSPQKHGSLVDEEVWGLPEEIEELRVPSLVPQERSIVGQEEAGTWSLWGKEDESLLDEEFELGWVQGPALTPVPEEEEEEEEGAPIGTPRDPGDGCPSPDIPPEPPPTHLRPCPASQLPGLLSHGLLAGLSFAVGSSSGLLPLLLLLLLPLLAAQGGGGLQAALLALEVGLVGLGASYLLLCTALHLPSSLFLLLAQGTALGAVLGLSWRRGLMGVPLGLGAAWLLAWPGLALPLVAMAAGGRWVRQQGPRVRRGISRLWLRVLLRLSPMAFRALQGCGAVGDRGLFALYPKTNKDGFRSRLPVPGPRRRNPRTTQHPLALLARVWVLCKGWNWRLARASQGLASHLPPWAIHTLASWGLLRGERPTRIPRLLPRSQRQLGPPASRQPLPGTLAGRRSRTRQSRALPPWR
Chain of UniProt P10398 (whole entry, looked up): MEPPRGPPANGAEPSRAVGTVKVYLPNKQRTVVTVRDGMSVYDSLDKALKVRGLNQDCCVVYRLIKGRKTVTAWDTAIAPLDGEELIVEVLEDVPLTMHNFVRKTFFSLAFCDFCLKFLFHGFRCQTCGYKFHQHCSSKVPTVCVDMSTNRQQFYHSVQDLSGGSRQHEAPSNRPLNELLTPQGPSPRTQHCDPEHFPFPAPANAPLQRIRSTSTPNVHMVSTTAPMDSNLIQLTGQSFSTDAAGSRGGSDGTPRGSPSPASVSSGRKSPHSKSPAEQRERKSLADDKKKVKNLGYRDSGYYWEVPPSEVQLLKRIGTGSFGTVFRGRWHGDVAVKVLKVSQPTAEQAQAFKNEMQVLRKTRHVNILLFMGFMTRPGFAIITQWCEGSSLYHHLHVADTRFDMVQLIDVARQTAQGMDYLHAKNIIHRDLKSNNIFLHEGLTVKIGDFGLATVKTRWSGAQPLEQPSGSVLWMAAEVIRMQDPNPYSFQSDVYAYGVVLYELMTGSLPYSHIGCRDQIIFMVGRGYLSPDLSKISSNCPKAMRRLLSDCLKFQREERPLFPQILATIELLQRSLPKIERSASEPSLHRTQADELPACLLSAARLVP
Chain of UniProt P52333 (whole entry, looked up): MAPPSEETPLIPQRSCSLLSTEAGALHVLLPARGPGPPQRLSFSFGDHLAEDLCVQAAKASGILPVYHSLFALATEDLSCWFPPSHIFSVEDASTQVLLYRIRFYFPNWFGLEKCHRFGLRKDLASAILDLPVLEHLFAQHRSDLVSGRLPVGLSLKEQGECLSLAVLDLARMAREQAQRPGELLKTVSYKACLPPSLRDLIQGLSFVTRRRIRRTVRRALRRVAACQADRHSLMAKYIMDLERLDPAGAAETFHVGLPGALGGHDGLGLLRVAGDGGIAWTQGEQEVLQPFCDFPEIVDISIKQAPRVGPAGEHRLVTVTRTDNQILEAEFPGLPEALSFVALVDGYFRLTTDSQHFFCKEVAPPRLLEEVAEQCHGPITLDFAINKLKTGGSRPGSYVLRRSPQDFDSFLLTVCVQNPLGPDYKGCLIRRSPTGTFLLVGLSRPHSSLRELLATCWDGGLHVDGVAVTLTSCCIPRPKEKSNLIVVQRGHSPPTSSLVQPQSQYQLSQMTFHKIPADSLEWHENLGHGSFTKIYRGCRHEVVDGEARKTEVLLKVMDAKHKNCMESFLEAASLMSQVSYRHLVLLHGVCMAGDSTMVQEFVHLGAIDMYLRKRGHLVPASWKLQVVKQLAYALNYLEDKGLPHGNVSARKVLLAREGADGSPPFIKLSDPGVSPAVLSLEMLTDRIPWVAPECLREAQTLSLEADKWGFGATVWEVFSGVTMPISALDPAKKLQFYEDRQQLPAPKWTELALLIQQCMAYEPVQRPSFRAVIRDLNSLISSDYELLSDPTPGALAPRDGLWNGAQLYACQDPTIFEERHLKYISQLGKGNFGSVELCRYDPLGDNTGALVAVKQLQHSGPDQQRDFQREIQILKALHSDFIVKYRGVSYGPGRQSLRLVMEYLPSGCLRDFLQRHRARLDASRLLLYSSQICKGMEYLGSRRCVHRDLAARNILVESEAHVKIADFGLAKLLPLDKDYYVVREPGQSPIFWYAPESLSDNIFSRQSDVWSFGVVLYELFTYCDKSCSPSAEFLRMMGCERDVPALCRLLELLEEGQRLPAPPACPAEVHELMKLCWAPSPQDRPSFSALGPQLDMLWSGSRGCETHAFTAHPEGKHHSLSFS

Study 1
SMILES: O=C(NS(=O)(=O)c1ccc(NCC2CCOCC2)c([N+](=O)[O-])c1)c1ccc(N2CCN(Cc3ccc(C(F)(F)F)cc3-c3ccc(Cl)cc3)CC2)cc1Oc1cnc2[nH]ccc2c1
Read-out: cell-free assay
Technique: competition with immobilised ligand
Tested at: 1 µM
target	remaining binding [%]
Ribosomal protein S6 kinase alpha-2, C-terminal kinase domain (RPS6KA2, Homo sapiens, UniProt Q15349)	100
KIT (Homo sapiens, UniProt P10721, V559D/V654A)	100
MET (Homo sapiens, UniProt P08581)	93
KIT (Homo sapiens, UniProt P10721, L576P)	100
Tyrosine-protein kinase ABL1, non-phosphorylated (ABL1, Homo sapiens, UniProt P00519, H396P)	94
HIPK2 (Homo sapiens, UniProt Q9H2X6)	100
NTRK2 (Homo sapiens, UniProt Q16620)	88

Study 2
Target: Sal-like protein 4, full length isoform A (SALL4, Homo sapiens, UniProt Q9UJQ4, residues 1-1053)
Chain of UniProt Q9UJQ4 (whole entry, looked up): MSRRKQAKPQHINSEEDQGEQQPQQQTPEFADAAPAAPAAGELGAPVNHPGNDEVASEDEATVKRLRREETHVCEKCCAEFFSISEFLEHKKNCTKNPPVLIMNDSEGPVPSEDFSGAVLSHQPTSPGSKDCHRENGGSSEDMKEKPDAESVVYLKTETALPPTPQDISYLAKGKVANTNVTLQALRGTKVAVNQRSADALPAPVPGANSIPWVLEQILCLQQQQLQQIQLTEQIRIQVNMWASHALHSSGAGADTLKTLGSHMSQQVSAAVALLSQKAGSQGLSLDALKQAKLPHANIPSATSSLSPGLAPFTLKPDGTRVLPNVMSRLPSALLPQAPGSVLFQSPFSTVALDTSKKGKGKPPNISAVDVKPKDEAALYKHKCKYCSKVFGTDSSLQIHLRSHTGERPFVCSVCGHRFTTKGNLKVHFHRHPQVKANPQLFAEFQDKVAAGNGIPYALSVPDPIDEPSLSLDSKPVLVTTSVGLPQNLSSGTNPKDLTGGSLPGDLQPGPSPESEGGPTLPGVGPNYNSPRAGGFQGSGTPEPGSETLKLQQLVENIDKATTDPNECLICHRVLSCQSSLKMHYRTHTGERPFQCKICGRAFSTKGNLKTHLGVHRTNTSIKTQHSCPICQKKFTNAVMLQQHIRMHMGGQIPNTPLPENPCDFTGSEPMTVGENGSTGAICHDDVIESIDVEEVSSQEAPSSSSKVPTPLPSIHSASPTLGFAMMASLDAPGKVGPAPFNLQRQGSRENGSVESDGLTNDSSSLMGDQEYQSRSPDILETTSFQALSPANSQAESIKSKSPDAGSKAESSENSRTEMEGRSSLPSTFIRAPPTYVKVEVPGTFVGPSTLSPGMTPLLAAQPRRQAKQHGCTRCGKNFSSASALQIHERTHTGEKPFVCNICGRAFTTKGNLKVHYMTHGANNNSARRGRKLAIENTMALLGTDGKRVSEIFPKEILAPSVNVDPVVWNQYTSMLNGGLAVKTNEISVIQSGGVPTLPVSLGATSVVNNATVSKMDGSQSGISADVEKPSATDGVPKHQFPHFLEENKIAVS
Technique: universal PBM
Molecule type: double-stranded DNA, one strand shown
Medium: in vitro
Tested at: 600 nM
Setting: 8-mer, flanks averaged, mean of replicates
Reading: higher = stronger binding
Strand	E-score
CTTTTCGA	0.104
CCACATGC	0.0249
ACGCCGCC	-0.37
GATAGCCC	-0.22
ACTTCGAT	0.102
ATGGGAAG	-0.0348
AGCGGTGA	-0.171
AAACGTTT	0.207

Study 3
Species: human
Medium: microsomes or S9
Tested at: 2 µM
Time: 0.5 h
SMILES	remaining compound
Cc1ccc2oc(=O)c(/C=C(\O)CC(C)C)nc2c1	67.9%
CC(=O)N1CCC(C(=O)N2CCN(c3cc(Cl)ccc3C)CC2)CC1	88.3%
Cc1ncc(-c2ccc(C)c(S(=O)(=O)NC(C)(C)C)c2)o1	46%
COc1ccccc1N/C(N)=N/Cc1ccccc1OCCN(C)C	98.6%
CCOC(=O)N1C[C@H]2CCCN(C(=O)C3CCCN3S(=O)(=O)c3ccc(C)cc3)[C@@H]2C1 (stereo partly drawn)	6.51%
CC(=O)c1cccc(N(CC(=O)Nc2ccc(S(=O)(=O)N3CCCC3)cc2)S(C)(=O)=O)c1	25.5%

Study 4
Compound: Cc1cc(Nc2cc(N3CCN(C)CC3)nc(Sc3ccc(NC(=O)C4CC4)cc3)n2)[nH]n1
Read-out: enzyme activity
Mode: inhibitor
Tested at: 0.5 µM
Baseline: control
target	remaining activity
MAP2K2 (Homo sapiens, UniProt P36507)	91.3%
MAP3K14 (Homo sapiens, UniProt Q99558)	111%
TBK1 (Homo sapiens, UniProt Q9UHD2)	90.5%
FRK (Homo sapiens, UniProt P42685)	101%
GRK7 (Homo sapiens, UniProt Q8WTQ7)	95.5%
ULK3 (Homo sapiens, UniProt Q6PHR2)	87.3%
ABL2 (Homo sapiens, UniProt P42684)	5.75%
JAK3 (Homo sapiens, UniProt P52333)	91.8%
CSNK1G2 (Homo sapiens, UniProt P78368)	96.2%
TAOK2 (Homo sapiens, UniProt Q9UL54)	18.6%
FGFR3 (Homo sapiens, UniProt P22607)	70.6%
ARAF (Homo sapiens, UniProt P10398)	123%
